Measured values gathered from unrelated publications.
A part holds a random share of what one study measured. Changes are numbered by the printed parent chain.
UniProt Q9LQE8, sequence (whole entry, looked up): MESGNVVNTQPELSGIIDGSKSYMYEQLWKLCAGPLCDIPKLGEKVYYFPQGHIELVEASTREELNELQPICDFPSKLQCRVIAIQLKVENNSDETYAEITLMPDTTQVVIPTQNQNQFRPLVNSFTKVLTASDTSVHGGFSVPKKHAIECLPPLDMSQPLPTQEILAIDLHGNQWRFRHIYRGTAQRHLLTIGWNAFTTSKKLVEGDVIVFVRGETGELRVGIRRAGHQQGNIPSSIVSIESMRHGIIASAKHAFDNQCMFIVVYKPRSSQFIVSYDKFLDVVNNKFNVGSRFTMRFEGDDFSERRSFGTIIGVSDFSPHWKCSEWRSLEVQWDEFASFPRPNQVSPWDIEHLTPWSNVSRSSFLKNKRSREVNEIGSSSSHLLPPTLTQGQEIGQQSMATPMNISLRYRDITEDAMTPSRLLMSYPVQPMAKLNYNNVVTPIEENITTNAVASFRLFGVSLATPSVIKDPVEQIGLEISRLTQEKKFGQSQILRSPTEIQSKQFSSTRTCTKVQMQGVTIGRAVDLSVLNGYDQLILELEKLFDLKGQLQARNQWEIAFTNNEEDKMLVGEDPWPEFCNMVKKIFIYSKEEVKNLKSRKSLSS
UniProt Q8H174, sequence (whole entry, looked up): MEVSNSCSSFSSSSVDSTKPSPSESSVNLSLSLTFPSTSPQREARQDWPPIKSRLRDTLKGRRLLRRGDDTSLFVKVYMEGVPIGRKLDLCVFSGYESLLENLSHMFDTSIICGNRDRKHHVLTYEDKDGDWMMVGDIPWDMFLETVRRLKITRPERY
UniProt O24409, sequence (whole entry, looked up): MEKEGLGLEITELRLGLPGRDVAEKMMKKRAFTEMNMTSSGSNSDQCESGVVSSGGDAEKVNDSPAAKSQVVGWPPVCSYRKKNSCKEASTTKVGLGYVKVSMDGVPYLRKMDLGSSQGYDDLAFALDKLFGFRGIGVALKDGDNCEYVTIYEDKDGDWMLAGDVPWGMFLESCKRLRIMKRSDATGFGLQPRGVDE
UniProt Q9FGV1, sequence (whole entry, looked up): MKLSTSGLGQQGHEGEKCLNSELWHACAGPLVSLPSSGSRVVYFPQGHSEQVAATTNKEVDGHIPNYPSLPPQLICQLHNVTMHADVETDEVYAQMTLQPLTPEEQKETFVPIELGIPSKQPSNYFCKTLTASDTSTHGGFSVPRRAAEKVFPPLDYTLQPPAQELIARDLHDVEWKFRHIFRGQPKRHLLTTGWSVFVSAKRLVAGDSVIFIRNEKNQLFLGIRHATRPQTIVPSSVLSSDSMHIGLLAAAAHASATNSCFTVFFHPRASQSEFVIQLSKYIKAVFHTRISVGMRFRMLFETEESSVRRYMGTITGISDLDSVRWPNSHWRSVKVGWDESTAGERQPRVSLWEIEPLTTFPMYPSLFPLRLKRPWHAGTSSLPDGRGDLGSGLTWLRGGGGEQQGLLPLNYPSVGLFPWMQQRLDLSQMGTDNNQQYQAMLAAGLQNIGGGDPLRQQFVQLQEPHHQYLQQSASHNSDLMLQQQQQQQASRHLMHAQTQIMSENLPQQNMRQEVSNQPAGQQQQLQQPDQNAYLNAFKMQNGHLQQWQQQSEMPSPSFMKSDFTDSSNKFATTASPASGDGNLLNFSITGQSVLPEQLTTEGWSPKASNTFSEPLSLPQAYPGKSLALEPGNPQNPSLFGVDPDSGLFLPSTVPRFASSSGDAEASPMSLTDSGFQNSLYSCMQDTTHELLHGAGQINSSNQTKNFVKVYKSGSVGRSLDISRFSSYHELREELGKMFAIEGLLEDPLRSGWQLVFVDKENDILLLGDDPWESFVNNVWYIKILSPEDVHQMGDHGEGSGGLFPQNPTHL
UniProt Q9ZSY8, sequence (whole entry, looked up): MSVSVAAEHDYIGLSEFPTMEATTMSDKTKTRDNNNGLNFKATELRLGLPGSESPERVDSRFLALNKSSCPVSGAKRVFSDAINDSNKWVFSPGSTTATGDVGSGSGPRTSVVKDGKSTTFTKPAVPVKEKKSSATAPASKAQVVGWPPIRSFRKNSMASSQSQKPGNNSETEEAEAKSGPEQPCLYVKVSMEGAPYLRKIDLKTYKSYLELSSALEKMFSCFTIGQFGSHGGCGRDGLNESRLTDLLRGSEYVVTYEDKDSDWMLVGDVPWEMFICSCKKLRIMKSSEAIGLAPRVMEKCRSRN

Block 1 — Molecule: B1 (IAA16); method: two-hybrid; reading: higher = firmer interaction; endpoint: positive tests
B1: IAA16 (Arabidopsis thaliana, UniProt O24407); chain MINFEATELRLGLPGGNHGGEMAGKNNGKRGFSETVDLKLNLSSTAMDSVSKVDLENMKEKVVKPPAKAQVVGWPPVRSFRKNVMSGQKPTTGDATEGNDKTSGSSGATSSASACATVAYVKVSMDGAPYLRKIDLKLYKTYQDLSNALSKMFSSFTIGNYGPQGMKDFMNESKLIDLLNGSDYVPTYEDKDGDWMLVGDVPWEMFVDSCKRIRIMKGSEAIGLAPRALEKCKNRS
IAA19 (Arabidopsis thaliana, UniProt O24409); reference: out of 4 tests: 4
IAA31 (Arabidopsis thaliana, UniProt Q8H174); reference: out of 3 tests: 3
IAA27 (Arabidopsis thaliana, UniProt Q9ZSY8); reference: out of 4 tests: 4
ARF8 699-811 (Arabidopsis thaliana, UniProt Q9FGV1); reference: out of 4 tests: 4
ARF14 497-605 (Arabidopsis thaliana, UniProt Q9LQE8); reference: out of 4 tests: 0

Block 2 — target: JUNB, bZIP domain (human); method: DHFR protein complementation; matrix: yeast; reference: wild-type JUN-FOS pair; reading: higher = stronger binding; endpoint: binding fitness
Setting: single substitutions, most at no-binding floor
Starting sequence: JUN, bZIP domain (human); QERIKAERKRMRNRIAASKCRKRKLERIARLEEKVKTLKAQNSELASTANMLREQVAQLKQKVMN; partner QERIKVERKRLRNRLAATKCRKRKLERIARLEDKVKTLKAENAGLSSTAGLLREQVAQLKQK
K39W: -1.43 natural log
A29M: -1.42 natural log
R53A: -1.37 natural log
K39I: -1.24 natural log
I28N: -1.59 natural log
V35G: -1.5 natural log
A29I: -1.31 natural log
L45A: -1.5 natural log
S47H: -0.987 natural log
S47I: -1.09 natural log
Q55R: -1.41 natural log
K36S: -1.3 natural log
R53N: -1.51 natural log
L59G: -1.17 natural log
K39E: -0.933 natural log
A49N: -0.778 natural log
A57V: -1.35 natural log
Q41D: -1.44 natural log
R53V: -1.5 natural log
L45W: -1.48 natural log
M51Q: -1.07 natural log
Q41N: -1.39 natural log
Q41I: -1.11 natural log
R30S: -1.06 natural log
Q41R: -1.24 natural log

Block 3 — method: DHFR PCA, deep sequencing; matrix: yeast; together with: (+)-ABA 0.11 µM; reference: wild-type fitted maximum; reading: higher = stronger binding; endpoint: relative binding score
Target: ABI1, truncated, D143A, DHFR fusion (Arabidopsis thaliana)
Setting: methotrexate growth selection, single substitutions
Starting sequence: PYL1, truncated, DHFR fusion (Arabidopsis thaliana); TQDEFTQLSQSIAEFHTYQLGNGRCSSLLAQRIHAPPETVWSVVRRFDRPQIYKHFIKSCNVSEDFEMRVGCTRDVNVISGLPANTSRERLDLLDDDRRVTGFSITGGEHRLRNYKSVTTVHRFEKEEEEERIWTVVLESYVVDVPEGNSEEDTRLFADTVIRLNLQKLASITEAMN
T120W: -6.18%
L20H: 47%
K58I: -2.65%
A13Y: 0.775%
D144V: -4.08%
Q51C: 7.71%
P50I: -3.38%
N114L: -4.32%
R74L: 0.115%
E125D: 20.8%
D95E: -1.57%
V44E: -4.92%
P37S: 0.697%
N77G: 18.7%
S63R: 24.8%
D92L: -0.245%
S117D: -3.63%
E109F: 2.13%
E128H: 61.4%

Block 4 — target: CCNB1, cyclin fold, Cln2 fusion (human); method: yeast growth competition, sequencing; matrix: yeast; setting: weak parent motif; reference: not given; reading: higher = stronger binding; endpoint: normalised enrichment score
Starting sequence: SLBP docking peptide (human); ARYKRKLLINDFG
ARYKRILLINDFG [K6I]: 0.519
ARYKRNLLINDFG [K6N]: 1.24
ARYKRKLLINDFN [G13N]: 0.377
ARYKRKLLIGDFG [N10G]: 1.65
ARYKRKLLINIFG [D11I]: -0.451
ARYKRKLLVNDFG [I9V]: 0.417
ARYKRKLLINQFG [D11Q]: 0.359
ARYKRKLLINDCG [F12C]: 0.917
ARYKRKLGINDFG [L8G]: 0.661
ARYKRHLLINDFG [K6H]: 0.0464
ARYKRKLLINDFQ [G13Q]: 0.15
ARYKRKLLINDFV [G13V]: 0.986
ARYKRKLSINDFG [L8S]: 0.591
ARYKGKLLINDFG [R5G]: 0.234
ARYKRKLLIDDFG [N10D]: 0.485
ARYKRKLLPNDFG [I9P]: 0.699
ARYKRKLFINDFG [L8F]: -0.119
ARYKRKLLINDIG [F12I]: 0.467
ARYKQKLLINDFG [R5Q]: 0.0369
ARYKRKTLINDFG [L7T]: 0.189
ARYKAKLLINDFG [R5A]: 0.762
AFYKRKLLINDFG [R2F]: 0.124
ARYKRKLLINCFG [D11C]: 0.441
ARYKRKLLINDQG [F12Q]: -0.177
ARYHRKLLINDFG [K4H]: 1.64

Some of these lines once more (block 2):
K36S: -1.3 natural log
R53N: -1.51 natural log
L59G: -1.17 natural log
K39E: -0.933 natural log
A49N: -0.778 natural log
A57V: -1.35 natural log
Q41D: -1.44 natural log
R53V: -1.5 natural log
L45W: -1.48 natural log
M51Q: -1.07 natural log
Q41N: -1.39 natural log
Q41I: -1.11 natural log
